{"data": "Experimental data collected from several papers"}
{"SMILES": "CC(=O)c1c(C)c2cnc(Nc3ccc(C4CCN(CCS(C)(=O)=O)CC4)cn3)nc2n(C2CCCC2)c1=O", "system": "human, plasma", "setting": "oral, 75 mg twice daily, day 21, multiple doses, added: letrozole", "measurement": "AUC(0-t)", "value": "1.15 µg·h/mL"}
{"SMILES": "O=C(O)C[C@H](O)C[C@H](O)/C=C/c1c(C2CC2)nc2ccccc2c1-c1ccc(F)cc1", "system": "human, plasma", "setting": "oral, 2 mg", "measurement": "AUC(0-t)", "value": "0.0634 µg·h/mL"}
{"SMILES": "C[C@H](NC(=O)c1c(C(F)F)nn(C)c1Oc1cccc(C(F)(F)F)c1)c1ccc(C(=O)O)cc1", "system": "human, plasma", "setting": "750 mg, cycle 1 day 8, mean", "measurement": "AUC(0-t)", "value": "5.93 µg·h/mL"}
{"SMILES": "OCc1ncc2n1-c1ccc(Cl)cc1C(c1ccccc1F)=NC2", "system": "human", "setting": "dose not given, metabolite of midazolam, added: midazolam alone", "measurement": "AUC(0-t)", "value": "0.0115 µg·h/mL"}
{"SMILES": "O=c1ccc2ncc(=O)n3c2n1C[C@H]3CN1CCC(NCc2cc3c(cn2)OCCC3)CC1", "system": "healthy human volunteers, plasma", "setting": "oral, dose not given, arithmetic mean, added: itraconazole", "measurement": "AUC(0-t)", "value": "26.8 µg·h/mL"}
{"SMILES": "CCc1nc(N)nc(N)c1-c1ccc(Cl)cc1", "target or system": "human coronavirus OC43", "assay": "virus-induced cell killing", "system": "MRC-5", "setting": "screen", "measurement": "maximum inhibition", "value": "26%"}
{"SMILES": "COc1ccc(C[C@@H]2NC(=O)[C@H]([C@@H](C)O)NC(=O)[C@@H]3[C@@H]4CCN3C(=O)[C@@H]3Cc5cn(c6ccc(F)cc56)CCCCCCN(Cc5ccc(cc5)CCNC(=O)[C@]5(C)CCCN5C2=O)C(=O)CCC(=O)N[C@@H](C)C(=O)N[C@H](CNC(=O)CCCCC[N+](C)(C)C)C(=O)N[C@@H](Cc2cccc(c2)CNC(=O)CO4)C(=O)N3)cc1", "system": "human, plasma", "setting": "oral, 100 mg, added: sodium caprate 1800 mg", "measurement": "AUC(0-t)", "value": "855 nM·h"}
{"SMILES": "CC(C)C[C@@H]1NC(=O)[C@H](CC(C)C)NC(=O)[C@H](Cc2c[nH]c3ccccc23)NC(=O)[C@H](CO)NC(=O)[C@H](Cc2c[nH]c3ccccc23)NC(=O)[C@@H]2CCCN2C(=O)[C@H](CC(C)C)NC(=O)[C@H](Cc2c[nH]cn2)NC(=O)[C@@H]2CCCN2C(=O)[C@H](CC(N)=O)NC(=O)[C@H](C)NC(=O)[C@H](Cc2ccc(O)cc2)NC(=O)[C@H](CS)NC(=O)[C@H](CCCCNC(=O)CN2CCN(CC(=O)O)CCN(CC(=O)O)CCN(CC(=O)O)CC2)NC1=O [lutetium-177 labelled]", "assay": "radio-HPLC", "system": "mouse serum", "setting": "24 h, 37 °C", "measurement": "radiochemical purity", "value": "> 97%"}
{"SMILES": "OCc1ncc2n1-c1ccc(Cl)cc1C(c1ccccc1F)=NC2", "system": "human, plasma", "setting": "oral, 2.5 mg", "measurement": "AUC(0-t)", "value": "0.0095 µg·h/mL"}
{"SMILES": "OCc1ncc2n1-c1ccc(Cl)cc1C(c1ccccc1F)=NC2", "system": "human, plasma", "setting": "oral, 7.5 mg of midazolam, day 19, geometric mean, no amenamevir", "measurement": "AUC(0-t)", "value": "0.0422 µg·h/mL"}
{"SMILES": "C[C@@](Cc1ccc(O)c(O)c1)(NN)C(=O)O", "assay": "item: levodopa", "system": "healthy human volunteers, plasma", "setting": "subcutaneous, dose not given, 24 h infusion, geometric mean, crossover", "measurement": "AUC(0-t)", "value": "2.67 µg·h/mL"}
{"SMILES": "NS(=O)(=O)NCCNc1nonc1C(=NO)Nc1ccc(F)c(Br)c1", "target or system": "human coronavirus OC43", "assay": "virus-induced cell killing", "system": "MRC-5", "setting": "screen", "measurement": "maximum inhibition", "value": "9.57%"}
{"SMILES": "OCc1ncc2n1-c1ccc(Cl)cc1C(c1ccccc1F)=NC2", "assay": "CYP3A4 probe metabolite", "system": "human, plasma", "setting": "oral, 2 mg midazolam, day -7, probe cocktail alone, geometric mean", "measurement": "AUC(0-t)", "value": "0.135 µg·h/mL"}
